Assay results collected from several papers.
A part holds a random share of what one study measured. Positions count from the first letter of the parent shown.

Series 1
Target: RNA binding protein fox-1 homolog 2, RRM domain, GST-SBP tag (RBFOX2, Homo sapiens, UniProt O43251-10, residues 100-194)
Method: RNA Bind-n-Seq
Form: RNA
Matrix: in vitro
Tested at: 365 nM
Setting: natural RNA segment, single round, ends assumed
Baseline: no-protein control
Reading: higher = stronger binding
Shared flanks, not repeated: GGGAGUUCUACAGUCCGACGAUC … UGGAAUUCUCGGGUGCCAA
Construct (chain): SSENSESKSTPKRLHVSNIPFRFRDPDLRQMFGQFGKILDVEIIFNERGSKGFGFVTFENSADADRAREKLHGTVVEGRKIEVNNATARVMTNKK
Oligonucleotide	RBNS enrichment (R)
AGUUUGGCUACAGUCGUAAGGAGAACUUGCCUGGCCCCCAGCACCGCUGAUGCCAGACCUUCUCCCGCUGCCAGGAAGCUGUUGUCGACUCCAGACCUGGUUGAGGGAGU	0.687
CCCAAGCAAGGCGUCACCGAGGAGGAAGAAAGGGGGUACUCUCAUGUCUGCUUACUCACAAAAACAGAUAGUGGCUUAGGAAUUGUGGUUAUAUCCAGUUAUACAGGCGA	0.341
GGGGCCGCCGCGCAAGGGGGCGACGCAUAAAGGCCUGCUGGCUUGGGGCGCCUGCCUCCCUGCUCCUCUGUCCUCGCACAGCGAACCUGGGCUCCUGCCCAGGACAGGCA	0.412
GGCAAAUGUCUGGAUGUCGCAUUUCCUCACCCCCCACCUCAUGAAUCCUACUUCUCCCCAACAUAGAAGUAGACAUUUCUCAUCCCAUUCUUUGUAAAUGUCCACACCCU	0.94
UAAAAUAAAGACAGCUUUGGAAAGGAGAAGGCACUUUAAAGACAUGAAACCUCUUAUUACAUGCUCUUGUAUGUUUUUAAGCAUAAUAAGCUAACUGGAUUUGGGUAUAU	0.477
CCUAAACCCACUACUGCCAAAGAACCCAGCAACAAACCUCCCGGCUAGGAGCUUUAGAAGUCUUUAUGUUCUUCCUGCCAUCAUUCCUCCUUUUCCCACAGGGAAAGAAA	0.545
CACACUCCAUCUCCCCGCUUUGUAAAUACCCAUCGGGAAGAGACUUUUUUUCCAUGGUGAAGAGCAAUAAACUCUGGAUGUUUGUGCGCGUGUGUGGACAGUCUUAUCUU	0.411
UCAAGAACAGCUCUCCAUGGCUUUGCCUUGACUGUUGUUCCUCCCUUUGCCUUUCCCGCUCCCACUAUCUGGGCUUUGACUCCAUGGAUAUUAAAAAAGUAGAAUAUUUU	0.357

Series 2
Target: Interferon regulatory factor 7, full length, phosphomimetic (IRF7, Homo sapiens, UniProt Q92985, residues 1-503, S471D/S472D/S475D/S476D/S477D/S483D/S484D/S487D)
Method: protein-binding microarray
Form: double-stranded DNA, one strand shown
Matrix: in vitro
Tested at: 2200 nM top
Setting: 60-bp whole probe
With: salmon DNA 0.4 mg/ml
Baseline: random background probes
Reading: higher = stronger binding
Shared flanks, not repeated: GCCTAGCAC … GTCTTGATTCGCTTGACGCTGCTG
Target sequence (chain): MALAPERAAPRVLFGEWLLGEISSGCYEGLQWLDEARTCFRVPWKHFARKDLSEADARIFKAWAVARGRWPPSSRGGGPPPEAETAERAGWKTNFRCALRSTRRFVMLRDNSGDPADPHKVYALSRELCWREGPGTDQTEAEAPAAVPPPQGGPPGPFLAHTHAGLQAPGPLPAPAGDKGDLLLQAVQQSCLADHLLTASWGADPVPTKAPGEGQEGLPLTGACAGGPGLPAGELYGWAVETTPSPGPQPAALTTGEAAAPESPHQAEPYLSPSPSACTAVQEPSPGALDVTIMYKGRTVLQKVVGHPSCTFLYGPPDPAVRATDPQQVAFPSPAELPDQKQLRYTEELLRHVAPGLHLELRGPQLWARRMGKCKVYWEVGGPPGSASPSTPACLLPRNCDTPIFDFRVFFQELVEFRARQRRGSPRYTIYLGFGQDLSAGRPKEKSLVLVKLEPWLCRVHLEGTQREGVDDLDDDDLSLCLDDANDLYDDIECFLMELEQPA
Oligonucleotide	fitted relative affinity [z-score]
TTAGGACTGGTTATCCTTTAGTGCTAG	0.192
TTAGGACTGCTTTTCCTTAAGTGCTAG	0.688
TTAGATTCCAGTTTCGACTAGTGCTAG	4.11
TTAGGACTAGGTCTCGGTTAGTGCTAG	-0.083
GACGGTTTCGGTTACGGGACGTGCTAG	7.65
TTCGGACTGGGGTTTCGGTTAGTGCTA	2.59
TTAGGTATCGGTATCGCTTAGTGCTAG	0.833
TTAGGTTTCGGGTTTAGGTTAGTGCTA	7.66
TTAGGTCTCGATCTCGGTTAGTGCTAG	0.508
TTAGGTATGGGGTTTCGGTTAGTGCTA	3.42
TCACTTTGCTTTCTCCCACTGTGCTAG	4.43
TCTTGTCTGGAGTCTCTGTTCGTGCTA	1.26
GACGGTTCCTTTTTCCTGACGTGCTAG	2.48
GACGGTTTCCTACTTCTGACGTGCTAG	2.43
GACGATTTCGGGTATCGAGTCGTGCTA	3.3
TTAGATCTCAGTATAGATTAGTGCTAG	-0.183
TTTCTCTGCTCTTTTCAACAAGTGCTA	2.39
TCAGATTTCAGGAATTGAACTGTGCTA	-0.24
TCAGGTTTCCTTATCCTTTAGTGCTAG	2.44

Series 3
Target: CEBPB, bZIP domain (human)
Method: DHFR protein complementation
Matrix: yeast
Setting: single substitutions, most at no-binding floor
Baseline: wild-type JUN-FOS pair
Reading: higher = stronger binding
Parent: JUN, bZIP domain (human); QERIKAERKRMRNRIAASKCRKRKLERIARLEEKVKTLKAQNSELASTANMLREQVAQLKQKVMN; partner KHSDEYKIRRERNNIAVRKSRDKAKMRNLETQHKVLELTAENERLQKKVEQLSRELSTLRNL
Change	binding fitness [natural log]
S43G	-1.36
M51H	-1.36
A57L	-1.25
A40G	-1.42
E32H	-1.31
M51A	-1.17
T48A	-1.37
L45E	-1.52
N42T	-1.43
Q41H	-1.23
E32K	-1.4
E44I	-1.4
Q41T	-1.38
R53I	-1.38
L52D	-1.45
V56K	-1.52
Q41V	-1.39
R30C	-1.34
N42F	-1.61
L52A	-1.46
L45A	-1.58
S43P	-1.46
A29I	-1.41
E33G	-1.41
N42E	-1.55

Series 4
Target: CCND1, cyclin fold, Cln2 fusion (human)
Method: yeast growth competition, sequencing
Matrix: yeast
Setting: weak parent motif
Baseline: not given
Reading: higher = stronger binding
Parent: WEE1 docking peptide (human); HKTFRKLRLFDTP; partner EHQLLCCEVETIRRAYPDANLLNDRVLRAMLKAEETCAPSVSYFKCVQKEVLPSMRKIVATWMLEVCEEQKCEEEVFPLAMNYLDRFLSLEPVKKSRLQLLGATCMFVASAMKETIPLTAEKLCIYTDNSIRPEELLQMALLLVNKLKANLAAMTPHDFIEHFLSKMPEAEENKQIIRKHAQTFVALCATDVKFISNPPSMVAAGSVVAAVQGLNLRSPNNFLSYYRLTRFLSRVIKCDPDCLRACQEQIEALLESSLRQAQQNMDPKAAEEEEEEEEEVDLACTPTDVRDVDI
Change	normalised enrichment score
HKTFRKLRLLDTP [F10L]	-0.607
HKTFRKLRLFDPP [T12P]	-0.193
HKTFRKLRVFDTP [L9V]	-0.185
FKTFRKLRLFDTP [H1F]	-0.227
HKTSRKLRLFDTP [F4S]	0.0296
HKTFRWLRLFDTP [K6W]	0.658
HKTDRKLRLFDTP [F4D]	0.0852
HKTFRKLRLFCTP [D11C]	0.803
HKTFRKLRLFDTE [P13E]	-0.337
HLTFRKLRLFDTP [K2L]	0.388
HKTFRKLRLFGTP [D11G]	-0.547
HKTFRSLRLFDTP [K6S]	-0.06
HKTFRKLRLPDTP [F10P]	-0.209
HKNFRKLRLFDTP [T3N]	-0.635
HKTFRKTRLFDTP [L7T]	-0.659
LKTFRKLRLFDTP [H1L]	-0.14
HKTFRKLRLVDTP [F10V]	-0.971
NKTFRKLRLFDTP [H1N]	0.55
DKTFRKLRLFDTP [H1D]	0.548
HKTFRKLRLFDAP [T12A]	0.073
HKTFRVLRLFDTP [K6V]	-0.0708
HKTFRKLRLFSTP [D11S]	0.00113
HKTFRKLNLFDTP [R8N]	-0.325
HKTTRKLRLFDTP [F4T]	0.706
HMTFRKLRLFDTP [K2M]	-0.119

Repeated from above (series 1):
Oligonucleotide	RBNS enrichment (R)
AGUUUGGCUACAGUCGUAAGGAGAACUUGCCUGGCCCCCAGCACCGCUGAUGCCAGACCUUCUCCCGCUGCCAGGAAGCUGUUGUCGACUCCAGACCUGGUUGAGGGAGU	0.687
CCCAAGCAAGGCGUCACCGAGGAGGAAGAAAGGGGGUACUCUCAUGUCUGCUUACUCACAAAAACAGAUAGUGGCUUAGGAAUUGUGGUUAUAUCCAGUUAUACAGGCGA	0.341
GGGGCCGCCGCGCAAGGGGGCGACGCAUAAAGGCCUGCUGGCUUGGGGCGCCUGCCUCCCUGCUCCUCUGUCCUCGCACAGCGAACCUGGGCUCCUGCCCAGGACAGGCA	0.412
GGCAAAUGUCUGGAUGUCGCAUUUCCUCACCCCCCACCUCAUGAAUCCUACUUCUCCCCAACAUAGAAGUAGACAUUUCUCAUCCCAUUCUUUGUAAAUGUCCACACCCU	0.94
UAAAAUAAAGACAGCUUUGGAAAGGAGAAGGCACUUUAAAGACAUGAAACCUCUUAUUACAUGCUCUUGUAUGUUUUUAAGCAUAAUAAGCUAACUGGAUUUGGGUAUAU	0.477
CCUAAACCCACUACUGCCAAAGAACCCAGCAACAAACCUCCCGGCUAGGAGCUUUAGAAGUCUUUAUGUUCUUCCUGCCAUCAUUCCUCCUUUUCCCACAGGGAAAGAAA	0.545
CACACUCCAUCUCCCCGCUUUGUAAAUACCCAUCGGGAAGAGACUUUUUUUCCAUGGUGAAGAGCAAUAAACUCUGGAUGUUUGUGCGCGUGUGUGGACAGUCUUAUCUU	0.411
UCAAGAACAGCUCUCCAUGGCUUUGCCUUGACUGUUGUUCCUCCCUUUGCCUUUCCCGCUCCCACUAUCUGGGCUUUGACUCCAUGGAUAUUAAAAAAGUAGAAUAUUUU	0.357
